Measurements of several laboratories.
Every numbered part comes from another study and shows a few of its results, in no order.

Sample 1 — technique: protein binding microarray; molecule type: double-stranded DNA, one strand shown; matrix: in vitro; concentration: not given; baseline: not given; reading: higher = stronger binding; measurement: E-score
Target: Histone acetyltransferase KAT6A, winged helix 2, GST fusion (KAT6A, Homo sapiens, UniProt Q92794, residues 85-181)
Setting: 8-mer, flanks averaged, mean of 2 arrays, mostly near background
Residues (chain): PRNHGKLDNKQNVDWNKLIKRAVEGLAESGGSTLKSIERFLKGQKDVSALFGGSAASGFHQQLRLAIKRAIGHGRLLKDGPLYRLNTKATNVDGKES
GCTAAACC: 0.176
CCGTAGGA: 0.152
AAAACTTT: -0.0699
CGCGGGTC: 0.245

Sample 2 — technique: protein-binding microarray; molecule type: double-stranded DNA, one strand shown; matrix: in vitro; concentration: 250 nM; setting: 60-bp whole probe; with: salmon DNA 0.4 mg/ml; baseline: random background probes; reading: higher = stronger binding; measurement: log fluorescence
Target: Interferon regulatory factor 5, full length, phosphomimetic (IRF5, Homo sapiens, UniProt Q13568-2, residues 1-514, K96S/S451D/S453D/S456D/S462D)
GCCTAGCACTTAGAACTGCTTTTCCTTTAGTGCTAGGTCTTGATTCGCTTGACGCTGCTG: 0.544 z-score
GCCTAGCACCACGGACTGGGGTTTCGGGACGTGCTAGTCTTGATTCGCTTGACGCTGCTG: 1.13 z-score
GCCTAGCACAGACGAATCATATCAAAATTGTGCTAGGTCTTGATTCGCTTGACGCTGCTG: 0.586 z-score
GCCTAGCACTCACTTCTCTAACCTCTCACTGTGCTAGTCTTGATTCGCTTGACGCTGCTG: 0.527 z-score

Sample 3 — technique: universal PBM; molecule type: double-stranded DNA, one strand shown; matrix: in vitro; concentration: not given; reading: higher = stronger binding; measurement: E-score
Target: Sal-like protein 4, full length isoform B (SALL4, Homo sapiens, UniProt Q9UJQ4-2, residues 1-616)
Setting: 8-mer, flanks averaged, mean of replicates
CAAATTAG: 0.164
AACACAGC: 0.0629
ACCCTCAT: -0.0571
ATGTAAGA: 0.244
ATATTCGC: 0.299

Single results of other studies
PhoQ, residues 284 288 289 292 302 303 SSCCRF
fold induction (PhoP, residues 12 14 15 18 19 IFFTR (Escherichia coli, UniProt P23836); Sort-seq, item: YFP reporter; E. coli; PhoQ-PhoP variant library, with: 10 µM Mg2+; baseline: high Mg2+ state, higher = stronger signaling): 2.82

Repeated from above (sample 3):
ATGTAAGA: 0.244
